Experimental data collected from several papers.
Every numbered part comes from another study and shows a few of its results, in no order.

Series 1 — method: RNA Bind-n-Seq; form: RNA; matrix: in vitro; tested at: 200 nM; notes: whole 134-nt RNA, ends assumed; together with: 150 mM LiCl; reference: input library; reading: higher = stronger binding; library: 7-deaza-guanosine replaces G
Target: Ras GTPase-activating protein-binding protein 1, full length (G3BP1, Homo sapiens, UniProt Q13283)
Sequence of UniProt Q13283 (whole entry, looked up): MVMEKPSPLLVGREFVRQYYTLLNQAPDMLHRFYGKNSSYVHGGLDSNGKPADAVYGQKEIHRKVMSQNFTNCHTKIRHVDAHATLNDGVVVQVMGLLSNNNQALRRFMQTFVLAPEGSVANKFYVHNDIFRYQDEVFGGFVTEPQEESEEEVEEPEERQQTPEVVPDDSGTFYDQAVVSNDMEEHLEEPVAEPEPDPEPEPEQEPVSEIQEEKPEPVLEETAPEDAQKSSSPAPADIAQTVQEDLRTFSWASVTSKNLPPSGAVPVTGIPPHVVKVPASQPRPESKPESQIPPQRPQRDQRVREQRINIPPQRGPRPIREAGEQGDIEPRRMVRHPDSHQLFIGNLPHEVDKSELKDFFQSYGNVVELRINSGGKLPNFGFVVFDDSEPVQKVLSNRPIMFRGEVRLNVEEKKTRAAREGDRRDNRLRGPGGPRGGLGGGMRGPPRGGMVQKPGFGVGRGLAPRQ
The log2 enrichment of `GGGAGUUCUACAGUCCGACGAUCCAAGUCCUGUGCUACACAUCGUAUGUACCGAAUCGGAAAAAAAGGUGGAAAAAGGAAAGUAUUAUGUUACGCCGUUCGGAUCUGCACUUCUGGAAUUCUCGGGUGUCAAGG` is reported as -0.923.
`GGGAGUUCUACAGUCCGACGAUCUCAAGUCCUGUGCUACACAUCGUAUGUACCGAAUCGGGAGGGAAAGGGUUUGGGAAAGUAUUAUGUUACGCCGUUCGGAUCUGCACUUCCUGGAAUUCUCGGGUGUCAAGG` has a log2 enrichment of -0.563.
`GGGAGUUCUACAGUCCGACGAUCUACCUGAUCAAUGACAGAGCCUUCUGAGGACAUUCCAAGACAGUAUACAGUCCUGUGGUCUCCUUGGAAAUCCGUCUAGUUAACAUUUCAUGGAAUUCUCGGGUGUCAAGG` has a log2 enrichment of -1.13.
For `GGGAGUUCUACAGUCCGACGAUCUCCUCAAGUCCUGUGCUACACAUCGUAUGUACCGAAUCGGUUUGGAGGUGGAAAGUAUUAUGUUACGCCGUUCGGAUCUGCACUUCCAGCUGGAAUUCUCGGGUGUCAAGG`, the log2 enrichment was -0.496.
With `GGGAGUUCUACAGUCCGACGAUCUAACUUUAGAGGAGGAUCUGAUGGAUAUGGCAGUGGACGUGGAUUUAGGGAUGGCUAUAAUGGGUAUGGAGGAGGACCUGGAGGUGGCAAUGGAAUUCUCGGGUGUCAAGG` the log2 enrichment was -0.276.
`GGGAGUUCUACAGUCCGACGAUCUACUAUGAAGCCUUGUGCAAAUCCCUCGACUGGCAGAUAGACGUGGACCUACUCAAUAAAAUGAAGAAGGCAAAUGAAGAUGAGUUGAAGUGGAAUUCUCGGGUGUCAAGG` has a log2 enrichment of -0.913.
The log2 enrichment of `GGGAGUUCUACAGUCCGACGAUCGUCCUGUGCUACACAUCGUAUGUACCGAAUCGGGUUUGGGAAAAAAAGGGUUUUUGGGAAAGUAUUAUGUUACGCCGUUCGGAUCUGCACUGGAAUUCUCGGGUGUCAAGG` is reported as -1.56.

Series 2 — method: RNA Bind-n-Seq; form: RNA; matrix: in vitro; tested at: not given; reference: input RNA pool; reading: higher = stronger binding
Target: RING finger protein unkempt homolog, zinc fingers 1-6, GST-SBP tag (UNK, Homo sapiens, UniProt Q9C0B0, residues 30-357)
Sequence of UniProt Q9C0B0 (30-357, looked up): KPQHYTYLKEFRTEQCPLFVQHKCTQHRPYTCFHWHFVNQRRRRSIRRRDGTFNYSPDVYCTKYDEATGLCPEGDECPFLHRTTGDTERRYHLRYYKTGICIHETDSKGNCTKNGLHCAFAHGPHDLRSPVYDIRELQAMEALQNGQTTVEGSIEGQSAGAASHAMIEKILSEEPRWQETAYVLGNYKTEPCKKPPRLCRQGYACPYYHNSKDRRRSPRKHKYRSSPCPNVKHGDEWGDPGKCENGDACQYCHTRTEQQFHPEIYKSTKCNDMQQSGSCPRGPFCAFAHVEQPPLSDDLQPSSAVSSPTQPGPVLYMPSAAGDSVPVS
Notes: RNA with constant flanks, human and mouse sites, ends assumed
`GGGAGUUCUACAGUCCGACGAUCAUUCGAAUAAUUGGGUUGUACAACUUAUCUCAUAAUCCCAUUAUUCAUUUGAUAUUCUGUUUUAGAAAAUUUAGGUUAAUCUUAAGAUUUAAUAAAUUUCAAAUCAUGUUAUUAUGCAAACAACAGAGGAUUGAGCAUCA` has a bound/input enrichment of 1.57 ratio.
For `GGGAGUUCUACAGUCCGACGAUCGGGAAGAAAUUCGGCAGUGAAUGAAGAUUCCUCUGCAUUUUAGCAUUGCUUUUUCUACUGUAGUUGGCUUUUGAAUGAGGAUGACAAUGGAAGAGAUGAAGAAUGAAGCUGAGACCACUUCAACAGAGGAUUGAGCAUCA`, the bound/input enrichment was 0.485 ratio.
`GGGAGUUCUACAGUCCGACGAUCUUGAUGAGCCUCCUGGGCCCCUCCAUCGAUUCCGUGGCUGUUCUGCGGGGCAUCCAGAAGGUGGCGAUGUUGGUCCAAGGGAACUGGGUGGUGAAGAGUGACAUCCUAUACCCCAAGGACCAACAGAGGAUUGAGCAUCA` has a bound/input enrichment of 0.148 ratio.
The bound/input enrichment of `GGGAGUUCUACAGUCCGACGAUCUUGAAACCUUUGGAUAGGGGAAAAAUUAUAUAUAUAUAUAUUUUUUUGUUCUGUUUGCAUUUCUUAAUUUGUGCUUGGAAUGUGUUGAUGUGCACAGCUAAUGAUUCAAUGCGAGACAAGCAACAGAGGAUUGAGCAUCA` is reported as 0.554 ratio.
`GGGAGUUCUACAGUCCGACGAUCAGUUUCCAGUGAAAGUAAUAUGUAGUGCUUUUAUGAUAUUUGUGUGCAAUAUCCCCUCUUCCAUUGAGGAUAUUUGAUGUAAAGGAAAAAAAAAAACUCAGUUCCACAAUAAAAUACAAACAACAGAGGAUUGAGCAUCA` has a bound/input enrichment of 0.462 ratio.
With `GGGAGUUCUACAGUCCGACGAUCUUUAUUGCAGCAGUUGACCUAGAUGAGAUGUCGUUCACUUUUACUGAGCUACAGAAAAACAUAGAAAUCAGUGUCCAUAAAUUCUUUAACUUACUAAAAGAAAUUGAUACCAGUACCAAACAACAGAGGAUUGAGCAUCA` the bound/input enrichment was 0.541 ratio.
`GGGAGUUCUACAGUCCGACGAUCGACAUGGAAACAUAUGAGAGACUGAGAGAAAAACAUGGAGAAGAGUUUUUCCCAACAUCCAAUAGUCUUCUUCAUGGAACACAUGUGCCUUCCACAGAGGAAAUUGACAGGAUGGUCAUACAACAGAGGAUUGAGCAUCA` has a bound/input enrichment of 0.197 ratio.
`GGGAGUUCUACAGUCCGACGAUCGGCAUGCCGCUUGCUUGAGCCAAUGCUAUGCUUGCUAGACUGUGUCUGACUGACUUUGGGCCAUCAAAUGUAUGCACAGCCAUGGCUUGGAAGUGUCCGUAGAUGGGAAUGCAAUAAAGGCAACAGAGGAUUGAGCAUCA` has a bound/input enrichment of 0.214 ratio.

Series 3 — method: protein binding microarray; form: double-stranded DNA, one strand shown; matrix: in vitro; tested at: not given; reference: not given; reading: higher = stronger binding
Target: Histone acetyltransferase KAT6A, winged helix 1, GST fusion (KAT6A, Homo sapiens, UniProt Q92794, residues 1-85)
Notes: 8-mer, flanks averaged, mean of 2 arrays, mostly near background
Residues (chain): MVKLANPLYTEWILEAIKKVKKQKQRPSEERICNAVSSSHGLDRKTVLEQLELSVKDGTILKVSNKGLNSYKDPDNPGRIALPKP
`GACGGTGC` has an E-score of 0.277.
`GCCAGGCA` gave an E-score of -0.0399.
The E-score of `AGAATCTC` is reported as -0.22.
`ACGCTTTC` gave an E-score of 0.111.
With `AATACAGA` the E-score was -0.0664.
The E-score of `ATACCGAT` is reported as -0.0381.
With `CAAACCGA` the E-score was 0.000495.
The E-score of `CCTGCACA` is reported as -0.148.
`AGTAGTAT` gave an E-score of -0.112.
For `AGCACCAT`, the E-score was -0.18.
For `ACTCCTAA`, the E-score was -0.166.
With `GGCGTCCC` the E-score was 0.221.
With `GCTATAGC` the E-score was 0.0519.
`GAGTGCGC` gave an E-score of 0.348.
`ACCGGATA` has an E-score of 0.00959.

Series 4 — method: universal PBM; form: double-stranded DNA, one strand shown; matrix: in vitro; tested at: not given; reading: higher = stronger binding
Target: Sal-like protein 4, full length isoform B (SALL4, Homo sapiens, UniProt Q9UJQ4-2, residues 1-616)
Notes: 8-mer, flanks averaged, mean of replicates
Construct (chain): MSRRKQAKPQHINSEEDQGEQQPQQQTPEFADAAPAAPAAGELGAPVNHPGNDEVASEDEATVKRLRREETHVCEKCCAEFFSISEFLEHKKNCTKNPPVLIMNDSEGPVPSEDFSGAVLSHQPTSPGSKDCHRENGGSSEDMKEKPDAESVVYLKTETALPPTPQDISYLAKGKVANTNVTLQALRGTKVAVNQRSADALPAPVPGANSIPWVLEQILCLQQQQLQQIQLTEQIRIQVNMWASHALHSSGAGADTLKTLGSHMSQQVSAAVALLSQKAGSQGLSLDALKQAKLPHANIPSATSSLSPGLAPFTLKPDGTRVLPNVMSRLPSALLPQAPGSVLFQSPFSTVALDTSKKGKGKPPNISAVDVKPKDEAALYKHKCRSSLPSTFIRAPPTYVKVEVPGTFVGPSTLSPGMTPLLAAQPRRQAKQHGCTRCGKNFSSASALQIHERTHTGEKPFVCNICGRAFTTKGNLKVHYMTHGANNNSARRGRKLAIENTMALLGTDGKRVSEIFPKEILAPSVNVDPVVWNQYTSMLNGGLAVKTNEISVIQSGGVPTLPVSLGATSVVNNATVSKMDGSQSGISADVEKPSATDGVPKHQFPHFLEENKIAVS
With `ATATCTTG` the E-score was 0.284.
`GGAATGAC` gave an E-score of -0.00965.
With `CGACTGCG` the E-score was -0.178.
With `AGGGAAAC` the E-score was 0.00304.
With `CAAAAAGG` the E-score was 0.0212.
With `AAAAACGT` the E-score was 0.148.
With `TGTGCACA` the E-score was 0.17.
`TACCTCTA` has an E-score of 0.165.
The E-score of `AATGTCAG` is reported as 0.0626.
`ACGCCAGT` gave an E-score of -0.287.
For `AGACGGCG`, the E-score was -0.267.

A few entries again (series 3):
`GCCAGGCA` gave an E-score of -0.0399.
The E-score of `AGAATCTC` is reported as -0.22.
`ACGCTTTC` gave an E-score of 0.111.
With `AATACAGA` the E-score was -0.0664.
The E-score of `ATACCGAT` is reported as -0.0381.
With `CAAACCGA` the E-score was 0.000495.
The E-score of `CCTGCACA` is reported as -0.148.
